Assay results of several laboratories.
Each line is one published result; not all experiments were run side by side. Several values in a cell are separate wells, animals, samples, runs or records.
Target: Serine/threonine-protein kinase TBK1 (TBK1, Homo sapiens, UniProt Q9UHD2)

SMILES	assay	system	setting	how to read	measurement	result
Cc1cccc(O[C@H]2CCC[C@@H](C(C)CNCc3ccncc3)C2)c1 (relative stereo)	enzyme activity, inhibitor		10 µM		inhibition	-3%
C=CC(=O)N1CCc2ccc(-n3c(=O)ccc4cnc5ccc(-c6cnn(C)c6)cc5c43)cc21	KINOMEscan		1 µM	relative to: DMSO control	remaining binding	93%
CNC(=O)C1CCN(c2cc(C)c(F)cc2NC(=O)c2ccc(-c3cc(O)ccc3C)c(C)c2)CC1	binding, competition with immobilised ligand		1 µM		remaining binding	100%
CNC1C[S+]2CC[S+]3CC[S+](C1)[Ru-4]321([N]=C=S)[n]2c3ccc(OC)cc3c3c4c(c5cc(F)c[n+]1c5c32)C(=O)NC4=O (centres unmarked)	KinomeScan		0.1 µM	relative to: untreated	remaining binding	96%
Cc1ccc(C(=O)Nc2ccc(CN3CCN(C)CC3)c(C(F)(F)F)c2)cc1C#Cc1cnc2cccnn12	target engagement, NanoBRET	human cells			upper asymptote	5.3
Cc1cccc(-c2ccc3nc(NC(=O)C4CCOCC4)nn3c2)c1	enzyme activity, Dundee kinase panel		10 µM		remaining activity	99%
Cc1ccc(-c2c(/C=C(\C#N)C(=O)NC(C)C)n(CCCO)c3ncnc(N)c23)cc1	cell-free assay, competition with immobilised ligand		1 µM		remaining binding	100%
COc1c(Cl)cccc1Nc1c(-c2ccncc2C#C[C@@]2(C)CCCN2C(=O)/C=C/CN(C)C)[nH]c2c1C(=O)NCC2	binding, competition with immobilised ligand		3 µM		remaining binding	100%
CN1CCN(Cc2ccc(-c3ccc(CO[C@H]4CCC[C@@H]4NC(=O)c4cc(-c5cnn(C)c5)cnc4N)cc3)cc2)CC1	enzyme activity, inhibitor		0.1 µM		inhibition	12%
COc1ccc(C(=O)/C=C/c2ccccc2-c2c[nH]c3ccc(C#N)cc23)c(O)c1	enzyme activity, inhibitor		20 µM		inhibition	-6%
Cc1ccc(C)c(-c2ccc3nc(NC(=O)C4CCCCC4)nn3c2)c1	enzyme activity, Dundee kinase panel		10 µM		remaining activity	86%
COc1cc(Nc2nccc(-c3cnn4nc(OC)ccc34)n2)cc(C(F)(F)F)c1	binding, competition with immobilised ligand		1 µM		remaining binding	80%
CC(C)=CC1OC(C)(C)C2C=C3C(=O)C(Cl)=CC(O)C3C3C(O)C4OC4C(=O)C132 (centres unmarked)	cell-free assay, competition with immobilised ligand		10 µM		remaining binding	89%
C=CC(=O)Nc1cccc(-c2cnc3[nH]cc(C(=O)NC(C)(C)C)c3n2)c1	kinase activity		0.1 µM		inhibition	18% and 23%
COCC12C(=O)NC3C4(C(OC)CC1O)C1CC5(O)C(OC)C(O)C(OC(C)=O)(C1C5OC(=O)c1ccccc1)C3(O)C(OC)C24 (centres unmarked)	kinase activity, inhibitor, ProQinase kinase profiling		25 µM	relative to: control	remaining activity	91% and 90%
Nc1ncc2c(n1)-c1c([nH]c3ccc(C4=CCOCC4)cc13)CCC2	binding, competition with immobilised ligand		1 µM		remaining binding	100%
Nc1ncc(-c2cc(-c3cnn(CC(F)(F)F)c3)ncc2F)nc1C(=O)NC1CNCC(F)C1 (centres unmarked)	enzyme activity		1 µM	relative to: DMSO control	remaining activity	98.6%
Cc1cnc2nc1Nc1cccc(c1)COC/C=C/COCc1cc(ccc1OCCN1CCOCC1)N2	binding, competition with immobilised ligand		0.1 µM		remaining binding	57%
NC(=O)C[C@H]1CCc2sc3ncnc(O[C@H]4CC[C@H](N5CCOCC5)CC4)c3c21	enzyme activity, inhibitor		10 µM		inhibition	6%
C=CC(=O)N1Cc2nc(-c3cc(-c4cc(Cl)cnc4Cl)c(F)cc3F)n(-c3ccncn3)c2C1	cell-free assay, inhibitor		1 µM		inhibition	11.5%

A few entries again:
SMILES	assay	system	setting	how to read	measurement	result
COc1ccc(C(=O)/C=C/c2ccccc2-c2c[nH]c3ccc(C#N)cc23)c(O)c1	enzyme activity, inhibitor		20 µM		inhibition	-6%
COc1c(Cl)cccc1Nc1c(-c2ccncc2C#C[C@@]2(C)CCCN2C(=O)/C=C/CN(C)C)[nH]c2c1C(=O)NCC2	binding, competition with immobilised ligand		3 µM		remaining binding	100%
C=CC(=O)N1CCc2ccc(-n3c(=O)ccc4cnc5ccc(-c6cnn(C)c6)cc5c43)cc21	KINOMEscan		1 µM	relative to: DMSO control	remaining binding	93%
